# Published values of several laboratories.
# Each numbered part is a random draw from the data of one study; scales do not carry over between parts. Changes are numbered by the printed parent chain.

# Study 1
# Target: Prothrombin, mature alpha-thrombin (F2, Homo sapiens, UniProt P00734)
# Method: aptamer microarray, sandwich
# Molecule type: DNA with 2'F-ANA
# Medium: in vitro
# Tested at: 200 nM
# Setting: whole 15-mer aptamer, many near background
# With: Cy3 exosite-II aptamer, 400 nM
# Reading: higher = stronger binding
# Sequence: GGTTGGTGTGGTTGG
Modification,mean fluorescence intensity [a.u.]
2'F-ANA at 2 3 4 6 7 8 10 11 14,179
2'F-ANA at 1 3 4 6 7 8 10,66.1
2'F-ANA at 1 2 3 5 6 7 11 12,83.3
2'F-ANA at 4 5 6 7 9 12,149
2'F-ANA at 2 4 5 6 7 8 10 13,49.8
2'F-ANA at 2 4 5 6 7 9 10 11 12 14 15,48.5
2'F-ANA at 2 3 5 6 8 9 11 12 14,54.8
2'F-ANA at 1 2 7 9 11 14,52.4
2'F-ANA at 1 2 3 4 9 12,354
2'F-ANA at 1 2 3 4 5 7 9 10 12 15,70.6
2'F-ANA at 1 2 5 7 11 13 14,42.6
2'F-ANA at 1 2 4 5 6 8 9 11 14,54.7
2'F-ANA at 2 3 7 8 10,504
2'F-ANA at 2 3 5 6 7 8 9 11 13,75.4
2'F-ANA at 3 5 6 7 9 12 15,221
2'F-ANA at 2 3 4 5 6 9 10 12 13 15,128
2'F-ANA at 2 6 7 9 10 13 15,112
2'F-ANA at 1 3 4 5 6 7 9 10,51.4
2'F-ANA at 8 9 11 12 13 14 15,211
2'F-ANA at 3 5 7 9 11 13 14 15,54.1

# Study 2
# Target: Ras GTPase-activating protein-binding protein 1, full length (G3BP1, Homo sapiens, UniProt Q13283)
# UniProt Q13283, sequence (whole entry, looked up): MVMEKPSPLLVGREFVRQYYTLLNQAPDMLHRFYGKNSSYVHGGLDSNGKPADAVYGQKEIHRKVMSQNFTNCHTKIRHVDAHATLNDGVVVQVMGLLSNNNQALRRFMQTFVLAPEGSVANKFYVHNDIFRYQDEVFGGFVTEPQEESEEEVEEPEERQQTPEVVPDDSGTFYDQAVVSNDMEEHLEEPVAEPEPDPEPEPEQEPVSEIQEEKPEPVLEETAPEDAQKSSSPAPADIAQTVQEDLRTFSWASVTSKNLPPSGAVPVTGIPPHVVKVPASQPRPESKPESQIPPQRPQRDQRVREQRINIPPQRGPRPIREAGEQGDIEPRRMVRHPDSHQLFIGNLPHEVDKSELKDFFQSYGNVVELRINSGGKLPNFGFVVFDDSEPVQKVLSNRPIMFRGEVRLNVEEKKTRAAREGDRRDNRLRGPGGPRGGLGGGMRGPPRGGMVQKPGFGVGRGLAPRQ
# Method: RNA Bind-n-Seq
# Molecule type: RNA
# Medium: in vitro
# Tested at: 200 nM
# Setting: whole 134-nt RNA, ends assumed
# With: 150 mM LiCl
# Relative to: input library
# Reading: higher = stronger binding
# All molecules: 7-deaza-guanosine replaces G
# Constant ends, left off below: GGGAGUUCUACAGUCCGACGAUC … UGGAAUUCUCGGGUGUCAAGG
Sequence,log2 enrichment
AAGAUUUAGAGAUGAAUUAAAUUUAAUUAGGGGUUGCUAAGAAGCGAGCACUGACCAGAUAAGAAUGCUGGUUUUCCUAAAUGCAGUGAA,-1.07
GUCCUGUGCUACACAUCGUAUGUACCGAAUCGUGUGUGUGUGUGUGUGUGUGUGUGUGUAAAGUAUUAUGUUACGCCGUUCGGAUCUGCA,-0.826
GCAGGAAGUAAAAACAAAUGGAAAUGCUUCGGAUAGUGGCAGGGGUGGGGGUUGCUAAGGAAAGGGUGGGAUGGGAUUGGGUAAAGAGUU,-0.303
UGUGUCUUGCUGAAUCAGGGCUCUCUUAUCCCUGCCAUCGACUUACAGUGGGAAGAAGAUCUUCACCUGCACAGACCCGGGAACAGUCGG,-1.59
CCUGUGCUACACAUCGUAUGUACCGAAUCGGGGAAAGGGGAAAAAAAGGGGUUUUUGGGGAAAGUAUUAUGUUACGCCGUUCGGAUCUGC,0.694
GCAGGAAGUAAAAACAAAUGGAAAUGCUUCGGAUAGUGGCAGGGGUGGGGGUUGCUAAGGAAAGGGUGGGAUGGGAGUGGGUGAAGAGUU,-0.275
CAAGUCCUGUGCUACACAUCGUAUGUACCGAAUCGGGGAGGGGAGGGGUUUGGGGAAAGUAUUAUGUUACGCCGUUCGGAUCUGCACUUC,0.126
UAACUUUAGAGGAGGAUCUGAUGGAUAUGGCAGUGGACGUGGAUUUGGGGAUGGCUAUAAUGGGUAUGGAGGGGGACCUGGAGGUGGCAA,0.0359
GCAGGAAGUAAAAACAAAUGGAAAUGCUUCGGAUAGUGGCAAGGGUGGGGGUUGCUAAGGAAAGGGUGGGAUGGGAGUGGGUAAAGAGUU,0.293
UGUGCUACACAUCGUAUGUACCGAAUCGGGGAAAAAAAGGGGAAAAAAAGGGGAAAAAAAGGGAAAGUAUUAUGUUACGCCGUUCGGAUC,0.762
CCUGUGCUACACAUCGUAUGUACCGAAUCGGGAAAAAAGGGAAAAAAGGGAAAAAAGGGGAAAGUAUUAUGUUACGCCGUUCGGAUCUGC,0.224

# Study 3
# Target: CCND3, cyclin fold, Cln2 fusion (human)
# Method: yeast growth competition, sequencing
# Medium: yeast
# Setting: weak parent motif
# Relative to: not given
# Reading: higher = stronger binding
# Parent: SAMHD1 docking peptide (human); ASKSRVQLFKDDP
Change,normalised enrichment score
ASKWRVQLFKDDP [S4W],-0.386
ASKRRVQLFKDDP [S4R],0.294
ASKSRVQLFKDKP [D12K],-0.0346
ASKSEVQLFKDDP [R5E],0.148
ASKSRVQDFKDDP [L8D],0.00425
ASKSRVQLFKIDP [D11I],0.227
ASKSRVYLFKDDP [Q7Y],0.335
ASKSRVWLFKDDP [Q7W],-0.132
ASDSRVQLFKDDP [K3D],-0.148
ASKSRVQLFKTDP [D11T],0.695
ASKSTVQLFKDDP [R5T],-0.0261
ASKQRVQLFKDDP [S4Q],0.0701
ASYSRVQLFKDDP [K3Y],-0.0538
ASKSRVQLFKKDP [D11K],0.0338
ASKSRVQYFKDDP [L8Y],0.237
ASKSRNQLFKDDP [V6N],0.136
ASKSRVQGFKDDP [L8G],0.295
ASGSRVQLFKDDP [K3G],0.025

# Further values, each from its own experiment
Substance,target,assay,system,conditions,how to read,measurement,value
"PhoQ, residues 284 288 289 292 302 303 SSTMSV","PhoP, residues 12 14 15 18 19 AQCLL (Escherichia coli, UniProt P23836)","Sort-seq, measured: YFP reporter",E. coli,"PhoQ-PhoP variant library, with: 10 µM Mg2+","relative to: high Mg2+ state, higher = stronger signaling",fold induction,6.46

# A few entries again (study 2):
Sequence,log2 enrichment
AAGAUUUAGAGAUGAAUUAAAUUUAAUUAGGGGUUGCUAAGAAGCGAGCACUGACCAGAUAAGAAUGCUGGUUUUCCUAAAUGCAGUGAA,-1.07
GUCCUGUGCUACACAUCGUAUGUACCGAAUCGUGUGUGUGUGUGUGUGUGUGUGUGUGUAAAGUAUUAUGUUACGCCGUUCGGAUCUGCA,-0.826
GCAGGAAGUAAAAACAAAUGGAAAUGCUUCGGAUAGUGGCAGGGGUGGGGGUUGCUAAGGAAAGGGUGGGAUGGGAUUGGGUAAAGAGUU,-0.303
UGUGUCUUGCUGAAUCAGGGCUCUCUUAUCCCUGCCAUCGACUUACAGUGGGAAGAAGAUCUUCACCUGCACAGACCCGGGAACAGUCGG,-1.59
CCUGUGCUACACAUCGUAUGUACCGAAUCGGGGAAAGGGGAAAAAAAGGGGUUUUUGGGGAAAGUAUUAUGUUACGCCGUUCGGAUCUGC,0.694
